# Measurements of several laboratories.
# Amino acid sequences for entries named in this document (tags omitted). Residues count along the entry.
# UniProt P41143, whole entry: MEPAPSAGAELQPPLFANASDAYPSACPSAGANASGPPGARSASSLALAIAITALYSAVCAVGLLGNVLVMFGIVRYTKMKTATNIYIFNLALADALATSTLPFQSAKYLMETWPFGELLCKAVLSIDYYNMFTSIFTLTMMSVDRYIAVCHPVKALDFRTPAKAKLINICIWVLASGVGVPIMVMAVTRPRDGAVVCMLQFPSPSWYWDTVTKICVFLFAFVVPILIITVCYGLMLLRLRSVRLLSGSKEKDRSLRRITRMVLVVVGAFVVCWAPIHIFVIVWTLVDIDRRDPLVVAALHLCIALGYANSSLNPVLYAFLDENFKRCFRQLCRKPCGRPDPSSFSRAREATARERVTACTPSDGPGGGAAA
# UniProt Q9UF33, whole entry, looked up: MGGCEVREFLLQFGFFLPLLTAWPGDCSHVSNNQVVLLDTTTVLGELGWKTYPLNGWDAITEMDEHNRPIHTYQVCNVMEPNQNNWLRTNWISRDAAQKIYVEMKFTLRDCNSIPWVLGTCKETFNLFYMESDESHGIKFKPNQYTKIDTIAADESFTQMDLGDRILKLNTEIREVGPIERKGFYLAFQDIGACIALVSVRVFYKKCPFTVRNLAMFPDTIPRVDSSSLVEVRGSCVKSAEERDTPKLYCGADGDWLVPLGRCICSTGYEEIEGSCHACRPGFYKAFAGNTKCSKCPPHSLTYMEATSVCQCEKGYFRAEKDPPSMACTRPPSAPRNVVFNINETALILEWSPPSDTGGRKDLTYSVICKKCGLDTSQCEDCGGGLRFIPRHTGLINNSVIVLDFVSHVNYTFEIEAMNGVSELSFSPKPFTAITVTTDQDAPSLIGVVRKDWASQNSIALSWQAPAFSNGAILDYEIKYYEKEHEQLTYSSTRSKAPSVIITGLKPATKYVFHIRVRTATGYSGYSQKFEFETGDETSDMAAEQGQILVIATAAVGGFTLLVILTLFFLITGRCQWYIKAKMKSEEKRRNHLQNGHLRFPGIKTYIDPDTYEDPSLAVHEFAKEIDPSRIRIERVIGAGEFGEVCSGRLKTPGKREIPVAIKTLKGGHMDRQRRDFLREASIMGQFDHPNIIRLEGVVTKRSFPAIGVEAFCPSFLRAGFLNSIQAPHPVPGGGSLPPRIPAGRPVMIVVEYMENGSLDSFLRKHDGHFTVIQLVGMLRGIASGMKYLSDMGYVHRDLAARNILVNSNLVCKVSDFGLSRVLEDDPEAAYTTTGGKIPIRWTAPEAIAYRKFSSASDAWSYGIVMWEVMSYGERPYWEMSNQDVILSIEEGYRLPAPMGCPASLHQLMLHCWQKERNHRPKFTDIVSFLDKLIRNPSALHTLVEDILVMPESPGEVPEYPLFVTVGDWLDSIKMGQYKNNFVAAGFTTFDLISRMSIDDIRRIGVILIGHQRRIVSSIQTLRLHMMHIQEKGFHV
# UniProt P31652, whole entry: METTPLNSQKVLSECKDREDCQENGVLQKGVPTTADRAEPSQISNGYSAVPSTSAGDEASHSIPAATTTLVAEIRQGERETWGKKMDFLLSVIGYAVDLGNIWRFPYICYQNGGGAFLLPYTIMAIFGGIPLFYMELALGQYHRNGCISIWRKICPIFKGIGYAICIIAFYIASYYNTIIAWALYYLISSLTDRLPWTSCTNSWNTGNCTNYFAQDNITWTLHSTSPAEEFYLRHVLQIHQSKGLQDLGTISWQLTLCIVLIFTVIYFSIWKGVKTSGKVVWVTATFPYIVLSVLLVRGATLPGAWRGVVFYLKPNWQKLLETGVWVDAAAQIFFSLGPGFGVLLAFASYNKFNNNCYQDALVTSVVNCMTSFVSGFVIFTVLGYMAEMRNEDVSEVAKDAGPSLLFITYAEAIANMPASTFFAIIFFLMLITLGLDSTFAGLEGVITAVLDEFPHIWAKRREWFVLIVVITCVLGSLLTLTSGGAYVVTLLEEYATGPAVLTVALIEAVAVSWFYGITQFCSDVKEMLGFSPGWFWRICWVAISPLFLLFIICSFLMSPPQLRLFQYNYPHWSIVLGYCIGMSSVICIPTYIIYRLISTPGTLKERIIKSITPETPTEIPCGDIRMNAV
# UniProt P67660, whole entry M154V, looked up: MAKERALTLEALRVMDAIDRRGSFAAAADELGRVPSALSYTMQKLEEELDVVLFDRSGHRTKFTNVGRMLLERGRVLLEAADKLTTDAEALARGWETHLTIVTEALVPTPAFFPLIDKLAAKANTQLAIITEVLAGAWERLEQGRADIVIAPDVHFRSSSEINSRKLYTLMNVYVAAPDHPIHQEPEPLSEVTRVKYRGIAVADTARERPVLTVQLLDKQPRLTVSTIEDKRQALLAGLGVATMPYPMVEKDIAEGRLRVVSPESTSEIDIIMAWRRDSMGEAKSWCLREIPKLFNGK
# UniProt P21620, whole entry: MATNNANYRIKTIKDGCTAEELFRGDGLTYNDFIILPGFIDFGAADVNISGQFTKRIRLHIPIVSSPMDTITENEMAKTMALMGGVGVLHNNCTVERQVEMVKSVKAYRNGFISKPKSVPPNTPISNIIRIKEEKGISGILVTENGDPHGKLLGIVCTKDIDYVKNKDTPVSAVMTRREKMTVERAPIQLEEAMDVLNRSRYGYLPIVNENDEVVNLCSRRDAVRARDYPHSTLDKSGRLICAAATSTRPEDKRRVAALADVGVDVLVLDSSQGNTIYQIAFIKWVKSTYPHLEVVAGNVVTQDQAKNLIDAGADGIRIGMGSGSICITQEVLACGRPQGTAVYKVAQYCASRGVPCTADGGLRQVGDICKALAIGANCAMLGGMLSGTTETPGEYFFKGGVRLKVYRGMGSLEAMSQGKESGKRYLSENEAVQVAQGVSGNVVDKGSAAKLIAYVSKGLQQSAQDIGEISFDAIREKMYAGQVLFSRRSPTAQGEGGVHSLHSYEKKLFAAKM
# UniProt P9WPP7, whole entry: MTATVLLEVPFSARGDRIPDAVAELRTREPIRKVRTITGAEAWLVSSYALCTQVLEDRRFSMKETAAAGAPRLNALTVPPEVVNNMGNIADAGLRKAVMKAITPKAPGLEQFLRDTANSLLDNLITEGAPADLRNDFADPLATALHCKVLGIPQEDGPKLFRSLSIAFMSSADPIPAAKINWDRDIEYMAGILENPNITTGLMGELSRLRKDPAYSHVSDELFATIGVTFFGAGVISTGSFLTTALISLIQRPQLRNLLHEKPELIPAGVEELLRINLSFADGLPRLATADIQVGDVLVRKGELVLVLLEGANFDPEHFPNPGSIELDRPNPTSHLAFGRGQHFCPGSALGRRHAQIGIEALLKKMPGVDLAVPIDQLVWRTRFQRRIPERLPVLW
# UniProt P08912, whole entry: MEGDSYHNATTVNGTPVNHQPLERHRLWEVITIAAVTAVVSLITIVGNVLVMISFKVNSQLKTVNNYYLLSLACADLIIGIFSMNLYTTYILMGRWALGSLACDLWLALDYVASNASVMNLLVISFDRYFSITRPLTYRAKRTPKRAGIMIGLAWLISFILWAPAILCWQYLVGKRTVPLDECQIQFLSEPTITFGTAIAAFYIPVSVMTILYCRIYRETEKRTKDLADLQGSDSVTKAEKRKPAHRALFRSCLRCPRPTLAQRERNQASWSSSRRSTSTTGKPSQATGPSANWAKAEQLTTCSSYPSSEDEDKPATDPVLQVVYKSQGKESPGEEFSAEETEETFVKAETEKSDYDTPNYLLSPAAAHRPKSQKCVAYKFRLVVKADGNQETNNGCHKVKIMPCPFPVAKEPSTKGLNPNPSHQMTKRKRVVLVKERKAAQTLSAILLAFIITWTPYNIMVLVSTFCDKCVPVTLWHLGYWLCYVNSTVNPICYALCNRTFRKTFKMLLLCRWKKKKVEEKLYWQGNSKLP
# UniProt Q13002, 32-908 limits assumed: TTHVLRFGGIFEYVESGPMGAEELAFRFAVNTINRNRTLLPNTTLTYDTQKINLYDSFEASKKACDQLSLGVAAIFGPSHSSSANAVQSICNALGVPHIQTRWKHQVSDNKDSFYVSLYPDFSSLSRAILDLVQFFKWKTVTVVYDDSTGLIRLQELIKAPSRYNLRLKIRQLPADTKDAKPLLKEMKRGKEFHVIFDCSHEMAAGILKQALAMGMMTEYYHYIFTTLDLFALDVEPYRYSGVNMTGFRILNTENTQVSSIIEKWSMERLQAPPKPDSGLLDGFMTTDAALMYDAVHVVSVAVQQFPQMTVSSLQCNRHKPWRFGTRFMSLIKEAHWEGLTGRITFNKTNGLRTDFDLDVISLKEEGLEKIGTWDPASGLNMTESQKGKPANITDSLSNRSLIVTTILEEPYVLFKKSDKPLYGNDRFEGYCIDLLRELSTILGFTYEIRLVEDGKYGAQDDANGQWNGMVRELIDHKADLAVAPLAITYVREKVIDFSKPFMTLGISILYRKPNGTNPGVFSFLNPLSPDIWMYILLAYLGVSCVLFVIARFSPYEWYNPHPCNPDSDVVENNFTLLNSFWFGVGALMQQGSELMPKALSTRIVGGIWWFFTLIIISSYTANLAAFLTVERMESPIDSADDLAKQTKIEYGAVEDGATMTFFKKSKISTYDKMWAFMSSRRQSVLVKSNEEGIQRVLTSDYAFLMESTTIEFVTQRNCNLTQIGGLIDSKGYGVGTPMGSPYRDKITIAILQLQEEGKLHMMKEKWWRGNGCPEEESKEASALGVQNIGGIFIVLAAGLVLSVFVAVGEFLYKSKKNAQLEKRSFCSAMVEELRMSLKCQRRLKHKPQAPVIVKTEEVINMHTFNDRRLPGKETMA
# UniProt Q16478, 15-980 limits assumed: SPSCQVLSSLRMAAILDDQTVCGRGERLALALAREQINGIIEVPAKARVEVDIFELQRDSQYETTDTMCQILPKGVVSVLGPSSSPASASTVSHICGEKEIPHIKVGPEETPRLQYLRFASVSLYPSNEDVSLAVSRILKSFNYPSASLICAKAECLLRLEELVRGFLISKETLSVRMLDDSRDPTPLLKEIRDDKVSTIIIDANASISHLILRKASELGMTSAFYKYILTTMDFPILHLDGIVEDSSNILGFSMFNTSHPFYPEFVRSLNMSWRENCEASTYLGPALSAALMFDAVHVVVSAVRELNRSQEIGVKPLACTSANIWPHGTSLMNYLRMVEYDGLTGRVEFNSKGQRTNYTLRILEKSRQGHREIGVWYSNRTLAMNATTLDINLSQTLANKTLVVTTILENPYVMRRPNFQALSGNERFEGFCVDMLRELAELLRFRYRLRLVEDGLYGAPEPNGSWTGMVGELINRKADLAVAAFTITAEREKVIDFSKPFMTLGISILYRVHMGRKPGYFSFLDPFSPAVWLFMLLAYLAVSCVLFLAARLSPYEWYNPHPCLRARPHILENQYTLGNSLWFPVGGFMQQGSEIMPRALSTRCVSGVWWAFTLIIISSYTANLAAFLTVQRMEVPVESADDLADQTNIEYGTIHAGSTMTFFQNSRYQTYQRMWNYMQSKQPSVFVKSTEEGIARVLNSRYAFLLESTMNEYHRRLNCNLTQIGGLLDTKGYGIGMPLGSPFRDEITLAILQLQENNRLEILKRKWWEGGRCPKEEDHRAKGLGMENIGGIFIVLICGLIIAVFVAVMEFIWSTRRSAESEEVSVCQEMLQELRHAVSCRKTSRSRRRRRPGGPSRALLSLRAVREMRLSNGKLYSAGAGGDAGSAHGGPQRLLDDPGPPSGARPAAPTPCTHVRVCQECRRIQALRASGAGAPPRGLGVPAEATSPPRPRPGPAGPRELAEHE
# UniProt P41145, whole entry: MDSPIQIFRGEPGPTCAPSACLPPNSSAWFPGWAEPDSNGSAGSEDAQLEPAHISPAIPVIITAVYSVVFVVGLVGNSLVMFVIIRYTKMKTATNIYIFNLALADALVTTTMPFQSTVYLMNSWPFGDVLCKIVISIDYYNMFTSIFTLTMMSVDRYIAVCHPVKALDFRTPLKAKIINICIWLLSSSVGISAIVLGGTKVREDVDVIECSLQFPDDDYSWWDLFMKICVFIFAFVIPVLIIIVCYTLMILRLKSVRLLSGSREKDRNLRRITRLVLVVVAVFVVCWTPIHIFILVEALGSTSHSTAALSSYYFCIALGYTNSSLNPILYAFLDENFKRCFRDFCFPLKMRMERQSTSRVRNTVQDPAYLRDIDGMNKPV
# UniProt P35372, whole entry: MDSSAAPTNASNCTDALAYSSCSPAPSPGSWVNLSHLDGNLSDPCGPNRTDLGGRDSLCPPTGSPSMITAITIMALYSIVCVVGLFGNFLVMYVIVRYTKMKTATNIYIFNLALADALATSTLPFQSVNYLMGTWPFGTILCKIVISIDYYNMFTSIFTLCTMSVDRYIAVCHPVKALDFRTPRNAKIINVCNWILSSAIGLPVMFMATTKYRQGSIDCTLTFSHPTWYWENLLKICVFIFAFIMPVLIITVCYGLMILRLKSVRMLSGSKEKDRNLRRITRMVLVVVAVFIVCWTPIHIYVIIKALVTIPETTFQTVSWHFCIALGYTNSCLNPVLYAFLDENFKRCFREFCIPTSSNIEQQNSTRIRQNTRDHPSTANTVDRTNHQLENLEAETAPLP
# Protocols differ between the studies behind these lines. ± marks the error that the study gave.
SMILES,target or system,assay,system,setting,scale,endpoint,value
CC[C@@](O)(c1ccccc1)[C@H]1C[C@@]23C=C[C@]1(OC)[C@@H]1Oc4c(O)ccc5c4[C@@]12CCN(CC1CC1)[C@@H]3C5,"OPRD1 (Homo sapiens, UniProt P41143)","binding, radioligand displacement",CHO,added: [3H]DPDPE,,Ki,0.0012 ± 0.00014 µM
CC#C/C(=N\OC[C@H]1COCCN1)c1ccc2ncnc(Nc3ccc(OCc4cccc(F)c4)c(Cl)c3)c2c1,"EPHA6 (Homo sapiens, UniProt Q9UF33)",kinase activity,,10 µM,,inhibition,36.3%
Cc1ccc2[nH]cc(CCN)c2c1,"Slc6a4 (Rattus norvegicus, UniProt P31652)","serotonin release, releaser",rat brain synaptosomes,,,EC50,0.139 ± 0.019 µM
Cc1cc(O)ccc1O,"Probable HTH-type transcriptional regulator YhaJ, effector-binding domain (yhaJ, Escherichia coli, UniProt P67660, M154V)",microscale thermophoresis,,pH 7.5,,Kd,8400 ± 2400 µM
O=C(Cn1c(-c2ccccn2)nc2ccccc21)Nc1ccc2ccccc2c1,"Inosine-5'-monophosphate dehydrogenase (Leishmania donovani, UniProt P21620)","enzyme activity, inhibitor",,,,IC50,> 10 µM
C[C@H](Cc1ccc(O)c(O)c1)[C@@H](C)Cc1ccc(O)c(O)c1,,,human skin,"3% solution, 8 h, skin UV-treated 30 min",,total amount permeated,20.4 ± 1.84 µg
C=CC(c1ccc(-c2ccc(O)cc2)cc1)n1ccnc1 (stereo not shown),"cyp121 (Mycobacterium tuberculosis, UniProt P9WPP7)",,,,,Kd,7.2 ± 0.5 µM
CCCN1CCN(c2ccc3c(c2)C2CC3CCN2C(=O)OCc2ccccc2)CC1 (stereo not shown),"CHRM5 (Homo sapiens, UniProt P08912)","binding, radioligand binding",,,,Ki,1.4 µM
CCN(CC)C(=O)Oc1ccc(C(=O)Nc2cccc3cc[nH]c23)cc1,"Glutamate receptor ionotropic, kainate 2/Glutamate receptor ionotropic, kainate 5 (Homo sapiens, UniProt Q13002+Q16478)","modulator, two-electrode voltage clamp",Xenopus oocytes,"20 µM, added: 100 µM AMPA",baseline: agonist alone,current response,96.5 ± 4.6%
CO[C@]12CC[C@@]3(C[C@@H]1[C@](C)(O)c1cc(C)cc(C)c1)[C@H]1Cc4ccc(O)c5c4[C@@]3(CCN1CC1CC1)[C@H]2O5,"OPRK1 (Homo sapiens, UniProt P41145)","binding, radioligand displacement",CHO,added: [3H]diprenorphine,,Ki,0.0001 ± 4e-05 µM
CSc1nc(Cl)cc(Sc2nnc(-c3cc(C(F)(F)F)cc(C(F)(F)F)c3)[nH]2)n1,Salmonella Typhimurium,,SL1344,added: NAB7061 4 µg/mL,,MIC,1 mg/L
CC[C@](O)([C@H]1C[C@@]23C=C[C@]1(OC)[C@@H]1Oc4c(O)ccc5c4[C@@]12CCN(CC1CC1)[C@@H]3C5)C(C)(C)C,"OPRM1 (Homo sapiens, UniProt P35372)","binding, radioligand displacement",CHO,added: [3H]DAMGO,,Ki,0.0042 ± 0.0006 µM
CCN1CCN(Cc2ccc(NC(=O)c3ccc(C)c(/C=C/c4cnc5[nH]ccc5c4OC)c3)cc2C(F)(F)F)CC1,FLT3-ITD,"kinase-CDC37 interaction, inhibitor, cell-based",,,,EC50,0.031 µM

# Some of these lines once more:
SMILES,target or system,assay,system,setting,scale,endpoint,value
CC[C@@](O)(c1ccccc1)[C@H]1C[C@@]23C=C[C@]1(OC)[C@@H]1Oc4c(O)ccc5c4[C@@]12CCN(CC1CC1)[C@@H]3C5,"OPRD1 (Homo sapiens, UniProt P41143)","binding, radioligand displacement",CHO,added: [3H]DPDPE,,Ki,0.0012 ± 0.00014 µM
